Experimental data collected from several papers.
Protocols differ between the studies behind these lines.
UCHL1: Ubiquitin carboxyl-terminal hydrolase isozyme L1 (UCHL1, Homo sapiens, UniProt P09936)
Sequence of UniProt P09936 (whole entry, looked up): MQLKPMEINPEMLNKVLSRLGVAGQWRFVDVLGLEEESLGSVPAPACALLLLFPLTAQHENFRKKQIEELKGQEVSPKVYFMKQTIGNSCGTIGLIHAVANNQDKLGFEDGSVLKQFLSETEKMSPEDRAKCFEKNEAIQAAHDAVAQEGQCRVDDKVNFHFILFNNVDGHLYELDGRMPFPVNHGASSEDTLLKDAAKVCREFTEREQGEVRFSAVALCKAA
TLK2: Serine/threonine-protein kinase tousled-like 2 (TLK2, Homo sapiens, UniProt Q86UE8)
Sequence of UniProt Q86UE8 (whole entry, looked up): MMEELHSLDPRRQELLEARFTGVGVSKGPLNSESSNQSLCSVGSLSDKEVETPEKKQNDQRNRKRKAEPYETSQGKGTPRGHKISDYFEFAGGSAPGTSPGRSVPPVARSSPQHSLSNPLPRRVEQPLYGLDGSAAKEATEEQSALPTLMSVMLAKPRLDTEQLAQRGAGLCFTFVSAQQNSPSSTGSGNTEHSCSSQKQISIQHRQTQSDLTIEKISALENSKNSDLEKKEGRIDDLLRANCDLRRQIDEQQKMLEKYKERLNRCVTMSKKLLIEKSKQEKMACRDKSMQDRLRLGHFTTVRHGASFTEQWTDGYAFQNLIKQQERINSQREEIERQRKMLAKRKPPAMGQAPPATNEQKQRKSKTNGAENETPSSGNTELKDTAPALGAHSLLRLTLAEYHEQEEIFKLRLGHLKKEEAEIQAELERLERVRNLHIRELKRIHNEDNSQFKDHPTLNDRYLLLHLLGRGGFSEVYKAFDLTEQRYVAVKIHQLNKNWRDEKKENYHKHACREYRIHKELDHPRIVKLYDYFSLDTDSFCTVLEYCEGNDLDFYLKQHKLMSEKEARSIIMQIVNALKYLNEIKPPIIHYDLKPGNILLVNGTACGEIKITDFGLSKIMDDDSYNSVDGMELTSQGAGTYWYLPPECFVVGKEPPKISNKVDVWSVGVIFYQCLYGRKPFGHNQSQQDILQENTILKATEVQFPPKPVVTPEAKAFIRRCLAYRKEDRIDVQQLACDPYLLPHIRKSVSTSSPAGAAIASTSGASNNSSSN
Sequence of UniProt P42336 (whole entry, unmodified, looked up): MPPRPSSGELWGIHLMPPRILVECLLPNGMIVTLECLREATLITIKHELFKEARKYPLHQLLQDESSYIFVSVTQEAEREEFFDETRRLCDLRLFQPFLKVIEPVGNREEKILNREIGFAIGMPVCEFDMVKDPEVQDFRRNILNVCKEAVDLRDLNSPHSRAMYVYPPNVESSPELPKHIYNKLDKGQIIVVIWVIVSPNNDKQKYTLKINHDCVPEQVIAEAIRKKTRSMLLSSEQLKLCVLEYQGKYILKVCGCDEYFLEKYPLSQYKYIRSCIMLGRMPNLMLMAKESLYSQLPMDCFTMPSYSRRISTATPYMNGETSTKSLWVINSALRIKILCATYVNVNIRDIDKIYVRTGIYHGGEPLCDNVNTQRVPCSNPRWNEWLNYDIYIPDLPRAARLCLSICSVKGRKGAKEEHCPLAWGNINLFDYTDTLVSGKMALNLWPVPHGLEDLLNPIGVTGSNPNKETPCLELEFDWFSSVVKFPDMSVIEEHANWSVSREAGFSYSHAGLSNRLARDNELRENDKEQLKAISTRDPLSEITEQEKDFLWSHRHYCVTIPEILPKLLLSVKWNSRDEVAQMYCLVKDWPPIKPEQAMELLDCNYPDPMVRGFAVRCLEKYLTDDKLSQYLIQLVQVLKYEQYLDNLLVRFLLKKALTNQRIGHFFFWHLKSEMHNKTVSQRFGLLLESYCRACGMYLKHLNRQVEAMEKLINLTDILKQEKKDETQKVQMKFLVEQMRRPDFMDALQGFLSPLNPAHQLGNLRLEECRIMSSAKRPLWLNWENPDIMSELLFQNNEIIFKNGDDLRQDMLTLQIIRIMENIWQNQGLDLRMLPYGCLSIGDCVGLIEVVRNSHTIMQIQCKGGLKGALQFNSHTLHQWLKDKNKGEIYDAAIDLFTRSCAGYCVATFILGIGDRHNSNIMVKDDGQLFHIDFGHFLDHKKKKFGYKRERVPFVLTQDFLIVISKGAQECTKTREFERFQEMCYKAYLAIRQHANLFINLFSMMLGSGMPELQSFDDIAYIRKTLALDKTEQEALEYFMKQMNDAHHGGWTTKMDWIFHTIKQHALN
Sequence of UniProt Q8IYT8 (whole entry, looked up): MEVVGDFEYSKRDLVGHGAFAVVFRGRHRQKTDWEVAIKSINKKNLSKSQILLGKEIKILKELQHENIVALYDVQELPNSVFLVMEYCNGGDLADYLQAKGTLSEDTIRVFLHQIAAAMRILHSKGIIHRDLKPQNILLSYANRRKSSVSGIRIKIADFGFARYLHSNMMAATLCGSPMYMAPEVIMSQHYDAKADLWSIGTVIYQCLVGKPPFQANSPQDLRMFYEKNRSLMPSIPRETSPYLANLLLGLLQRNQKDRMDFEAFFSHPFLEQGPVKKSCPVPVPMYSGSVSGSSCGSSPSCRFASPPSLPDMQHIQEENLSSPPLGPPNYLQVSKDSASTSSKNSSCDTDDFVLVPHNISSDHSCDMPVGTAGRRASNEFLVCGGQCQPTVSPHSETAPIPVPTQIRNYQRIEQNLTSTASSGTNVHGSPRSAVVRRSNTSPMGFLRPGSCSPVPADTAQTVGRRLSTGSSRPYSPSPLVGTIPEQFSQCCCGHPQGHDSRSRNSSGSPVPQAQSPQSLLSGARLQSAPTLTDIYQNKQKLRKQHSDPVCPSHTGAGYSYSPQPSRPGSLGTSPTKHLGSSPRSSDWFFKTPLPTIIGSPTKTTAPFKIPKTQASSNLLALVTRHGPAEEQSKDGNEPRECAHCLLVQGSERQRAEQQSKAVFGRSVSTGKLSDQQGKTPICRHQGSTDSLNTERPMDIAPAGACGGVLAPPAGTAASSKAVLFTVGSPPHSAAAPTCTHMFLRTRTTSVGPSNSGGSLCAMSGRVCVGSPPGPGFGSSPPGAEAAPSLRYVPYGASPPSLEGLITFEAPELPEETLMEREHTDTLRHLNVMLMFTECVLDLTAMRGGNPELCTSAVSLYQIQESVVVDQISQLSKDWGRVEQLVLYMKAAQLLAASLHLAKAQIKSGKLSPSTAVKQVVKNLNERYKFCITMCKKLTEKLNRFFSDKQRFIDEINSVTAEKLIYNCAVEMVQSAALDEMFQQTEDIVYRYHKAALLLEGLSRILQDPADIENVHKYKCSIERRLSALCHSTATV
Sequence of UniProt Q8WU08 (whole entry, looked up): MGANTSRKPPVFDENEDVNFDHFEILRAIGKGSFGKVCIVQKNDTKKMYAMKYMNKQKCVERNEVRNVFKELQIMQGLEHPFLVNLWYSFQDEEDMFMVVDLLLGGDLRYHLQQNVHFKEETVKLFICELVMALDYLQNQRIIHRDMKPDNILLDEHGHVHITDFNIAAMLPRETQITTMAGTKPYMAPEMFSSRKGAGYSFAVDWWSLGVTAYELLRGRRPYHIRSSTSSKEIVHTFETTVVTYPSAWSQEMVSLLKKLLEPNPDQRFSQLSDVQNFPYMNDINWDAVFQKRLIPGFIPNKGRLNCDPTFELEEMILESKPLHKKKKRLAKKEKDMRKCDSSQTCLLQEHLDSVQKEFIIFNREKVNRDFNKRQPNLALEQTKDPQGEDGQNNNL

O=C(NC1CCC1)c1ccc2nc(-c3cccc(NS(=O)(=O)NCCN4CCCCC4)c3)cn2c1
remaining activity (PIK3CA (Homo sapiens, UniProt P42336, H1047L); enzyme activity; 10 µM): 93%

O=S(=O)(NC1CCSc2c(F)cccc21)c1c(O)cc(F)c(F)c1F (stereo not shown)
remaining activity (malate dehydrogenase; enzyme activity, inhibitor; 200 µM, pH 7.0, 1% DMSO, aggregation counter-screen): 122%

Cc1ccc(NC(=O)C2(CNC(=O)C(C)Cl)CCCC2)cc1C (stereo not shown)
labelling (UCHL1; covalent, intact protein LC-MS; 12.5 µM): 10.4%

COC(=O)Nc1cccc(NS(=O)(=O)c2cc(Cl)cc(Cl)c2O)c1C
remaining activity (malate dehydrogenase; enzyme activity, inhibitor; 200 µM, pH 7.0, 1% DMSO, aggregation counter-screen): 84%

COc1cc(F)ccc1-c1ncnc(Nc2cccc(C[S@](C)(=N)=O)c2)n1
remaining activity (TLK2; kinase activity; 10 µM, added: 10 µM ATP): 100%

COc1cc(-c2cncc3c2CN(C)Cc2cc(N4CCNCC4)ccc2-3)cc(OC)c1OC
remaining activity (STK32A (Homo sapiens, UniProt Q8WU08); kinase activity; 1 µM, human enzyme, added: ATP 10 µM; baseline: DMSO control): 104%

N#CC(=Cc1cccc(Cl)c1Cl)C(N)=O
labelling (UCHL1; covalent, intact protein LC-MS; 12.5 µM): 34.1%

Cc1cc(Nc2cc(N3CCN(C)CC3)nc(Sc3ccc(NC(=O)C4CC4)cc3)n2)[nH]n1
remaining activity (ULK2 (Homo sapiens, UniProt Q8IYT8); kinase activity, KinaseProfiler; 0.03 µM, species human; baseline: control): 101%

COCCOC(=O)C1=C(C)NC(C)=C(C(=O)OC/C=C/c2ccccc2)C1c1cccc([N+](=O)[O-])c1 (stereo not shown)
EC90 (Toxoplasma gondii; parasite growth; HFF, bradyzoite, alkaline-induced): 22 µM

O=C(O)c1ccc(Nc2ncc3c(n2)-c2ccc(Cl)cc2C(c2c(F)cccc2F)=NC3)cc1
remaining activity (human JAK2(h); kinase activity; 1 µM): 92%

O=S(=O)(NC(CCc1ccccc1)C(F)(F)F)c1cccc(Cl)c1O (stereo not shown)
remaining activity (malate dehydrogenase; enzyme activity, inhibitor; 200 µM, pH 7.0, 1% DMSO, aggregation counter-screen): 112%

C=CC(=O)N1CCC[C@@H](n2nc(-c3ccc(Oc4ccccc4)cc3)c3c(N)ncnc32)C1
remaining activity (TLK2; 0.1 µM): 29.5%

COc1cc(Nc2ncc3c(n2)-c2ccc(Cl)cc2C(c2c(F)cccc2OC)=NC3)ccc1C(=O)O
remaining activity (MAPKAPK5; kinase activity; 1 µM): 104%
